Measurements from different studies.
Protocols differ between the studies behind these lines.
Organism: Staphylococcus aureus

| Compound | test | test system | setting | scale | measurement | result |
| --- | --- | --- | --- | --- | --- | --- |
| CC[C@H](C)[C@@H]1NC(=O)[C@H](CCC(N)=O)NC(=O)[C@H](CCC(=O)O)NC(=O)[C@H](CCC(=O)O)NC(=O)[C@H](CCCCN)NC(=O)[C@@H]2CCCN2C(=O)[C@H](CC(C)C)NC(=O)[C@@H](NC(=O)[C@@H](N)CO)CSSC[C@@H](C(=O)N[C@@H](CCCNC(=N)N)C(=O)N[C@@H](CCCNC(=N)N)C(=O)N[C@@H](CCCCN)C(=O)N[C@@H](CCCCN)C(=O)O)NC(=O)[C@H](CCCCN)NC(=O)[C@H](CCCNC(=N)N)NC(=O)CNC(=O)[C@H](CCCNC(=N)N)NC(=O)[C@H]([C@@H](C)O)NC(=O)[C@H](CO)NC(=O)[C@H](CCCCN)NC(=O)CNC1=O | – | ATCC 8530 | MBC, 2 h, pH 7.4, 37 °C, added: Escherichia coli K-235 LPS, peptide:LPS 1:10 w/w | – | antibacterial activity | inhibited |
| CC[C@H](C)[C@H](NC(=O)[C@H](CCCCN)NC(=O)[C@H](CCCCN)NC(=O)[C@H](CC(C)C)NC(=O)[C@H](CCCCN)NC(=O)[C@H](CCC(=O)O)NC(=O)[C@H](CCCCN)NC(=O)[C@@H](NC(=O)[C@H](CCCCN)NC(=O)[C@H](CC(N)=O)NC(=O)[C@H](CCCNC(=N)N)NC(=O)[C@H](Cc1ccccc1)NC(=O)[C@H](CCCCN)NC(=O)[C@H](CCCNC(=N)N)NC(=O)[C@H](CC(C)C)NC(=O)[C@H](CCCNC(=N)N)NC(=O)[C@H](CCCCN)NC(=O)[C@H](CCCNC(=N)N)NC(=O)[C@H](CC(C)C)NC(=O)CN)[C@@H](C)CC)C(=O)NCC(=O)N[C@@H](CCC(N)=O)C(=O)N[C@@H](CCCCN)C(=O)N[C@H](C(=O)N[C@@H](CCC(N)=O)C(=O)NCC(=O)N[C@@H](Cc1ccccc1)C(=O)N[C@H](C(=O)N1CCC[C@H]1C(=O)N[C@@H](CCCCN)C(=O)N[C@@H](CC(C)C)C(=O)N[C@@H](C)C(=O)N1CCC[C@H]1C(=O)N[C@@H](CCCNC(=N)N)C(=O)N[C@H](C(=O)N[C@@H](CC(=O)O)C(=O)N[C@@H](Cc1ccc(O)cc1)C(=O)O)[C@@H](C)O)C(C)C)[C@@H](C)CC | inhibition zone | penicillin-resistant P1383 | – | – | lethal concentration | 1.19 µM |
| CC(C)C1=C(OC(=O)CCc2ccccc2)C(=O)C2=C(C=C[C@H]3C(C)(C)CCC[C@]23C)C1=O | – | ATCC 25923, MSSA | – | – | MBC | < 70 µM |
| N=C(N)NCCC[C@H](NC(=O)[C@H](Cc1c[nH]c2ccccc12)NC(=O)[C@H](CCCNC(=N)N)NC(=O)[C@H](CCCNC(=N)N)NC(=O)[C@@H]1CCCN1C(=O)[C@H](CCCCN)NC(=O)[C@@H](N)CCCNC(=N)N)C(=O)N[C@@H](Cc1c[nH]c2ccccc12)C(=O)N[C@@H](Cc1c[nH]c2ccccc12)C(=O)N1CCC[C@H]1C(=O)N[C@@H](CCCCN)C(=O)N[C@@H](CCCNC(=N)N)C(=O)N1CCC[C@H]1C(=O)O | ELISA, measured: TNF-α | 09057, BALB/c mice, sepsis model | intraperitoneal, 20 mg/kg, 12 h | baseline: saline | serum cytokine level | decreased |
| C=Cc1cc(OC)c2c(c1)c(=O)oc1c2cc(OC)c2c(O)ccc([C@@H]3O[C@H](C)[C@H](O)[C@@](C)(O)[C@H]3O)c21 | measured: muramic acid | Newman | 1 x MIC | baseline: DMSO | peptidoglycan reduction | 93.3% |
| O.O=[N+]([O-])[O-].O=c1cc[nH]c(=S)[nH]1.[Ag+].c1ccc(P(c2ccccc2)c2ccccc2)cc1.c1ccc(P(c2ccccc2)c2ccccc2)cc1 | – | MTCC 740, DMSO | 0.1 mL of 50 mg/mL in 8 mm well, 18 to 24 h | – | inhibition zone diameter | 14 mm |
| CCCCCCc1ccc(Oc2ccc(Oc3cccc(=O)[nH]3)cc2)c(O)c1 | – | RN4220 | – | – | concentration at maximal post-antibiotic effect | 4 x MIC |
| CCc1[nH]c(C(=O)N[C@@H]2CCN(c3nnc(C(C)(C)O)s3)C[C@@H]2OC)nc1Cl | – | MRSA ATCC 43300, mice, sepsis model | intragastric, 10 mg/kg, day 7 | – | survival | 25% |
| ONCc1ccc(F)cc1 | – | – | MIC, 72 h | – | biofilm reduction | ~50% |

A few entries again:
| Compound | test | test system | setting | scale | measurement | result |
| --- | --- | --- | --- | --- | --- | --- |
| CC[C@H](C)[C@@H]1NC(=O)[C@H](CCC(N)=O)NC(=O)[C@H](CCC(=O)O)NC(=O)[C@H](CCC(=O)O)NC(=O)[C@H](CCCCN)NC(=O)[C@@H]2CCCN2C(=O)[C@H](CC(C)C)NC(=O)[C@@H](NC(=O)[C@@H](N)CO)CSSC[C@@H](C(=O)N[C@@H](CCCNC(=N)N)C(=O)N[C@@H](CCCNC(=N)N)C(=O)N[C@@H](CCCCN)C(=O)N[C@@H](CCCCN)C(=O)O)NC(=O)[C@H](CCCCN)NC(=O)[C@H](CCCNC(=N)N)NC(=O)CNC(=O)[C@H](CCCNC(=N)N)NC(=O)[C@H]([C@@H](C)O)NC(=O)[C@H](CO)NC(=O)[C@H](CCCCN)NC(=O)CNC1=O | – | ATCC 8530 | MBC, 2 h, pH 7.4, 37 °C, added: Escherichia coli K-235 LPS, peptide:LPS 1:10 w/w | – | antibacterial activity | inhibited |
| CC[C@H](C)[C@H](NC(=O)[C@H](CCCCN)NC(=O)[C@H](CCCCN)NC(=O)[C@H](CC(C)C)NC(=O)[C@H](CCCCN)NC(=O)[C@H](CCC(=O)O)NC(=O)[C@H](CCCCN)NC(=O)[C@@H](NC(=O)[C@H](CCCCN)NC(=O)[C@H](CC(N)=O)NC(=O)[C@H](CCCNC(=N)N)NC(=O)[C@H](Cc1ccccc1)NC(=O)[C@H](CCCCN)NC(=O)[C@H](CCCNC(=N)N)NC(=O)[C@H](CC(C)C)NC(=O)[C@H](CCCNC(=N)N)NC(=O)[C@H](CCCCN)NC(=O)[C@H](CCCNC(=N)N)NC(=O)[C@H](CC(C)C)NC(=O)CN)[C@@H](C)CC)C(=O)NCC(=O)N[C@@H](CCC(N)=O)C(=O)N[C@@H](CCCCN)C(=O)N[C@H](C(=O)N[C@@H](CCC(N)=O)C(=O)NCC(=O)N[C@@H](Cc1ccccc1)C(=O)N[C@H](C(=O)N1CCC[C@H]1C(=O)N[C@@H](CCCCN)C(=O)N[C@@H](CC(C)C)C(=O)N[C@@H](C)C(=O)N1CCC[C@H]1C(=O)N[C@@H](CCCNC(=N)N)C(=O)N[C@H](C(=O)N[C@@H](CC(=O)O)C(=O)N[C@@H](Cc1ccc(O)cc1)C(=O)O)[C@@H](C)O)C(C)C)[C@@H](C)CC | inhibition zone | penicillin-resistant P1383 | – | – | lethal concentration | 1.19 µM |
